Experimental data gathered from unrelated publications.
A part holds a random share of what one study measured. Substitutions count along the parent as printed.

Study 1
Target: Histone acetyltransferase KAT6A, winged helix 1, GST fusion (KAT6A, Homo sapiens, UniProt Q92794, residues 1-85)
Technique: protein binding microarray
Molecule type: double-stranded DNA, one strand shown
Sample: in vitro
Concentration: not given
Setting: 8-mer, flanks averaged, mean of 2 arrays, mostly near background
Relative to: not given
Reading: higher = stronger binding
Residues (chain): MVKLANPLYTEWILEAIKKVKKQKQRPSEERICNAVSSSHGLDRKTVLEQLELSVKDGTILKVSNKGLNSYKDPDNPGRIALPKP
Strand	E-score
AAACGCAG	-0.0474
CAGGCTAA	-0.122
TAGTTAGA	-0.0939
CCAGGTAC	-0.178
CGTGGAGA	-0.0636
ACTATTCT	-0.011
GGGTTTAA	0.0163
AGCCTGAC	-0.0849
ACGGAATC	0.259
GGGGCGTA	0.156
TGAGCTCA	-0.0265
TAATCACA	-0.2
ACAATTAG	-0.0716
TCCGATCA	0.00349
TGCTTTAA	-0.104
CGGGTGAC	0.348
GCGAGGAC	0.116
CATGTACC	0.116
AGAATGAG	-0.216
ACGGGTCA	0.194
ACTATAGC	0.114
AAGGTTTC	-0.0522
CATCCCCA	-0.28
ACGCTGCA	0.0599
GAACTCTC	-0.0334

Study 2
Target: Sal-like protein 4, full length isoform A (SALL4, Homo sapiens, UniProt Q9UJQ4, residues 1-1053)
UniProt Q9UJQ4, sequence (whole entry, looked up): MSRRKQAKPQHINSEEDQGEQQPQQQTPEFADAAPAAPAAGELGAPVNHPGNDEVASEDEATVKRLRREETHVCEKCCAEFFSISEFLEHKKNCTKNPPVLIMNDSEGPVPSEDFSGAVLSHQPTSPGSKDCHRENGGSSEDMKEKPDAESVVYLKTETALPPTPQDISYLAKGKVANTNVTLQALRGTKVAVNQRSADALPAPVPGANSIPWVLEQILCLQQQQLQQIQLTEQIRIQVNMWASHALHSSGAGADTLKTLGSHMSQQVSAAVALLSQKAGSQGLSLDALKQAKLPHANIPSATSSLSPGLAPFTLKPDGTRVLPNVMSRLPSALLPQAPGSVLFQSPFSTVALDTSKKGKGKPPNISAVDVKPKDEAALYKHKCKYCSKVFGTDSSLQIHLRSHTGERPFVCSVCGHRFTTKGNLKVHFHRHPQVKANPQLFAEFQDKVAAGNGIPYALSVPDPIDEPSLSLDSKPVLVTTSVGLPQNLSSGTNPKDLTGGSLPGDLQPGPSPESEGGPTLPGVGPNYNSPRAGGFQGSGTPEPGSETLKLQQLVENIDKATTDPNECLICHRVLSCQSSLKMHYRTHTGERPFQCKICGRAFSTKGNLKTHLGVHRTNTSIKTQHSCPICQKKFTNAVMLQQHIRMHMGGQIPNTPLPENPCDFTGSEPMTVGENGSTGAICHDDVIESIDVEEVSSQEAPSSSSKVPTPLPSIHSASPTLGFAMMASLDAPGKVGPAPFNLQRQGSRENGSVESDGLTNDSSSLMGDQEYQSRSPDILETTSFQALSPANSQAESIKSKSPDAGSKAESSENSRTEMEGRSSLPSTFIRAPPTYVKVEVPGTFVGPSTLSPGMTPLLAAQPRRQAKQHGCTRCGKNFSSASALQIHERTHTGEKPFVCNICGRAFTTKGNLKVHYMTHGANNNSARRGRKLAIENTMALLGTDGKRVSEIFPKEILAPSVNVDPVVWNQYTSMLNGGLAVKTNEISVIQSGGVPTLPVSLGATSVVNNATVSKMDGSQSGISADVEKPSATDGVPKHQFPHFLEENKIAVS
Technique: universal PBM
Molecule type: double-stranded DNA, one strand shown
Sample: in vitro
Concentration: 600 nM
Setting: 8-mer, flanks averaged, mean of replicates
Reading: higher = stronger binding
Strand	E-score
AGGGACGA	-0.125
AATGCAAG	0.175
GCGACGTA	-0.135
ACCCTGAG	-0.258
GTTGAATA	0.321
TAGGTTCA	0.0277
CTTTTGCC	0.0583
CTTCACTC	-0.0369
CTCTACGC	-0.14
AATGCGTC	-0.0762
AAAGTCCG	-0.203
ATCTAACA	0.141
GTCTACCA	-0.0662
GAATCAGC	-0.182
AACTGTGA	0.0415
CACTGTCA	0.055
AAGCCGAA	0.0145
GCCAAAAA	0.183
ACCCACAC	-0.0612
AAGCGCCG	-0.306

Study 3
Target: Prothrombin, mature alpha-thrombin (F2, Homo sapiens, UniProt P00734)
Technique: aptamer microarray, sandwich
Molecule type: DNA with 2'F-ANA
Sample: in vitro
Concentration: 200 nM
Setting: whole 15-mer aptamer, many near background
With: Cy3 exosite-II aptamer, 400 nM
Reading: higher = stronger binding
Strand: GGTTGGTGTGGTTGG
Modification	mean fluorescence intensity
2'F-ANA at 2 6 7 8 10 11 12 13 14	78.8 a.u.
2'F-ANA at 2 3 6 8 9 13 14	402 a.u.
2'F-ANA at 1 2 5 10 12 15	48.2 a.u.
2'F-ANA at 4 5 6 7 8 11 12 13 14	52.8 a.u.
2'F-ANA at 2 6 8 10 14	83.7 a.u.
2'F-ANA at 1 3 4 6 8 10 11 13 14	51.5 a.u.
2'F-ANA at 2 3 7 8 9 11 13	732 a.u.
2'F-ANA at 1 4 6 7 10 11 14	44.8 a.u.
2'F-ANA at 3 4 6 7 9 10 13 14 15	161 a.u.
2'F-ANA at 1 2 3 4 5 6 8 9 11 13 15	49.5 a.u.
2'F-ANA at 1 2 3 4 5 7 8 11 12 13 14	52 a.u.
2'F-ANA at 1 2 4 6 7 8 9 11 12 15	196 a.u.
2'F-ANA at 2 3 5 6 11 12 13	122 a.u.
2'F-ANA at 2 3 10 11 12 13 15	419 a.u.
2'F-ANA at 2 4 6 9 13 14	69.5 a.u.
2'F-ANA at 6 9 10 11 15	130 a.u.
2'F-ANA at 2 3 4 5 7 9 14 15	76.9 a.u.
2'F-ANA at 1 3 4 5 7 9 11 14 15	84.7 a.u.
2'F-ANA at 2 3 4 5 7 9 12 13	174 a.u.
2'F-ANA at 1 2 4 7 8 9 12 13 15	214 a.u.
2'F-ANA at 2 3 5 6 10	59.9 a.u.
2'F-ANA at 2 7 8 13 14	168 a.u.
2'F-ANA at 1 3 5 6 7 9 10 11 12 14	52.6 a.u.
2'F-ANA at 2 7 8 9 11 12 13 15	527 a.u.
2'F-ANA at 2 3 5 8 10 13 15	64.9 a.u.

Study 4
Target: Ras GTPase-activating protein-binding protein 1, RRM domain (G3BP1, Homo sapiens, UniProt Q13283)
UniProt Q13283, sequence (whole entry, looked up): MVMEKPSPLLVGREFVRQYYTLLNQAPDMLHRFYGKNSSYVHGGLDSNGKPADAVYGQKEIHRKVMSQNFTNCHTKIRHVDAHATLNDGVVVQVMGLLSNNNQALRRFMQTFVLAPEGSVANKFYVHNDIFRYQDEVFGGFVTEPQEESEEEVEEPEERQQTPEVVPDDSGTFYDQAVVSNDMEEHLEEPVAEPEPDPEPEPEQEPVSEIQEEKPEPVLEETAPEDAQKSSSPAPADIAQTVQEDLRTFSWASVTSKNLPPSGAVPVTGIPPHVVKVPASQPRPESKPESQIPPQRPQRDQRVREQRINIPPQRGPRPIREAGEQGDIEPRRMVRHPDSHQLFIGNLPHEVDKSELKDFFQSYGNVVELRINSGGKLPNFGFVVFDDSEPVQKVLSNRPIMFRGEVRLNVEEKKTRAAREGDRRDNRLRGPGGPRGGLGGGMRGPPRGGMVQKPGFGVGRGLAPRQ
Technique: RNA Bind-n-Seq
Molecule type: RNA
Sample: in vitro
Concentration: 1 µM
Setting: whole 134-nt RNA, ends assumed
With: 150 mM KCl
Relative to: input library
Reading: higher = stronger binding
Constant ends, left off below: GGGAGUUCUACAGUCCGACGAUC … UGGAAUUCUCGGGUGUCAAGG
Strand	log2 enrichment
AGUCCUGUGCUACACAUCGUAUGUACCGAAUCGGUUUUUGGGUUUUUGGUUUUUGGGAAAGUAUUAUGUUACGCCGUUCGGAUCUGCACU	-0.193
AAGUCCUGUGCUACACAUCGUAUGUACCGAAUCGGUUUUUUUGGUUUUUUUGGUGGAAAGUAUUAUGUUACGCCGUUCGGAUCUGCACUU	-0.466
UGGGAGGUGGAUUUUGUUUAUUUUUUUAGCUCAUUUCCAGGGGUGGGAAUUUUUUUUUAAUAUGUGUCAUCAAUAAAGUUGUUUUUGAAA	1.59
ACCAUGCAGGUGGGCAUCUUUGGGAAGUGGGGCAAGGGGGGGAUAGGGAGGGGGGUAACACUUUGGGAACAGGUGGUCCCAGGUCGAUUC	0.24
CUCAAGUCCUGUGCUACACAUCGUAUGUACCGAAUCGGUGGAGGUUUUUUUGGAAAGUAUUAUGUUACGCCGUUCGGAUCUGCACUUCCA	-0.229
CCUGUGCUACACAUCGUAUGUACCGAAUCGGAAAAAAAGGAAAAAAAGGGAAAAAAAGGGAAAGUAUUAUGUUACGCCGUUCGGAUCUGC	0.0528
UAACUUUAUAGGAGGAUCUGAUGGAUAUGGCAGUGGACGUGGAUUUGGGGAUGGCUAUAAUGGGUAUGGAGGAGGACCUGGAGGUGGCAA	-0.731
AGUCCUGUGCUACACAUCGUAUGUACCGAAUCGGCCCCCGGGGCCCCCGGCCCCCGGGAAAGUAUUAUGUUACGCCGUUCGGAUCUGCAC	-0.483
UCCUGUGCUACACAUCGUAUGUACCGAAUCGGGGAAAGGGGUUUGGGGAAAAAAAGGGGAAAGUAUUAUGUUACGCCGUUCGGAUCUGCA	0.77
UGGGAGGCGGAUUUUGUUUAUUUUUUUAGCUCAUUUCCAGGGGUGGGAAUUUUUUUUUAAUAUGUGUCAUGAAUAAAGUUGUUUUUGAAA	2.25

Study 5
Target: ABI1, truncated, D143A, DHFR fusion (Arabidopsis thaliana)
Technique: DHFR PCA, deep sequencing
Sample: yeast
Setting: methotrexate growth selection, single substitutions
With: (+)-ABA 2500 µM
Relative to: wild-type fitted maximum
Reading: higher = stronger binding
Starting sequence: PYL1, truncated, DHFR fusion (Arabidopsis thaliana); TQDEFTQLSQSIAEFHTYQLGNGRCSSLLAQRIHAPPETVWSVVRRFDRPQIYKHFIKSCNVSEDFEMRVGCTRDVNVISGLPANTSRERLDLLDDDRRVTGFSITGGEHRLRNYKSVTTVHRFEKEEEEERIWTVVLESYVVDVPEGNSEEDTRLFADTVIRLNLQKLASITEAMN; partner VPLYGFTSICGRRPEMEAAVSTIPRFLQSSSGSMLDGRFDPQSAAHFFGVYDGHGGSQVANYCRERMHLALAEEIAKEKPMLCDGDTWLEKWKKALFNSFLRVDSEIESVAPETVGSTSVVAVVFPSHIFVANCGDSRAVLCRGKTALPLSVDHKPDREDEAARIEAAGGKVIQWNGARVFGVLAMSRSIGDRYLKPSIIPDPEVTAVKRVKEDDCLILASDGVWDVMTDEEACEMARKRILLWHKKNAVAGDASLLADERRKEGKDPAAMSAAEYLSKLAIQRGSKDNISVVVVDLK
Change	relative binding score
D97N	105%
S42W	96%
R113G	101%
R113V	108%
Q7M	110%
H122Y	62.9%
A30M	104%
L82C	93.4%
E152K	94.9%
R98K	109%
E152P	86.9%
Y115I	-8.33%
E67V	97.5%
V145P	81.7%
S171A	96.8%
E130L	103%
S63T	94.8%
N85K	93%

A few entries again (study 3):
Modification	mean fluorescence intensity
2'F-ANA at 2 3 6 8 9 13 14	402 a.u.
2'F-ANA at 2 6 7 8 10 11 12 13 14	78.8 a.u.
2'F-ANA at 4 5 6 7 8 11 12 13 14	52.8 a.u.
2'F-ANA at 1 2 4 6 7 8 9 11 12 15	196 a.u.
2'F-ANA at 1 2 4 7 8 9 12 13 15	214 a.u.
2'F-ANA at 2 3 4 5 7 9 12 13	174 a.u.
2'F-ANA at 1 3 4 6 8 10 11 13 14	51.5 a.u.
2'F-ANA at 1 3 5 6 7 9 10 11 12 14	52.6 a.u.
2'F-ANA at 6 9 10 11 15	130 a.u.
